Results collected from several papers.
Each line is one published result; not all experiments were run side by side.
Sequence of UniProt Q13882 (whole entry, looked up): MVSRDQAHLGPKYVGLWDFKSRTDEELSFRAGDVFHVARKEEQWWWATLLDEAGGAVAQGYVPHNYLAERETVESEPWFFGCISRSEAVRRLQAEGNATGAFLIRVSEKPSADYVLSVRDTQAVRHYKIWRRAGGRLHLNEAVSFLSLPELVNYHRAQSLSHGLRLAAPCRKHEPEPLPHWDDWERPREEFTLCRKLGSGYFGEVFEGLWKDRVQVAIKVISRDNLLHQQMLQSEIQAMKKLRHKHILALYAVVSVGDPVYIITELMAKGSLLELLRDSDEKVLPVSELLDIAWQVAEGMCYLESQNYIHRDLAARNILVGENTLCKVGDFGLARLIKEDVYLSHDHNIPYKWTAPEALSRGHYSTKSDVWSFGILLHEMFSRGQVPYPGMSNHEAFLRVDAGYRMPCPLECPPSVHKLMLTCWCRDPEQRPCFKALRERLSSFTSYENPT
Sequence of UniProt O14733 (whole entry, looked up): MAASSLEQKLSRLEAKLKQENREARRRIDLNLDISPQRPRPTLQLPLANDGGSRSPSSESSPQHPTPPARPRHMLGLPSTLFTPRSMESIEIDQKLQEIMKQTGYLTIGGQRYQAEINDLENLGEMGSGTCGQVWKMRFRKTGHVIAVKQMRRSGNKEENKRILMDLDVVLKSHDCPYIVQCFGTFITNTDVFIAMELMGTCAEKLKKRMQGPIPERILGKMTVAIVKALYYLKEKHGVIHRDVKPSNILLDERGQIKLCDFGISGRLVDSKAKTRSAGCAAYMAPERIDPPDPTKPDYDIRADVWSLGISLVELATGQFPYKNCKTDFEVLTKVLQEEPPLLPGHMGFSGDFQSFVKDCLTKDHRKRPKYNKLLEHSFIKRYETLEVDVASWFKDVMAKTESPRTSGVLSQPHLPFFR
Sequence of UniProt P41231 (whole entry, looked up): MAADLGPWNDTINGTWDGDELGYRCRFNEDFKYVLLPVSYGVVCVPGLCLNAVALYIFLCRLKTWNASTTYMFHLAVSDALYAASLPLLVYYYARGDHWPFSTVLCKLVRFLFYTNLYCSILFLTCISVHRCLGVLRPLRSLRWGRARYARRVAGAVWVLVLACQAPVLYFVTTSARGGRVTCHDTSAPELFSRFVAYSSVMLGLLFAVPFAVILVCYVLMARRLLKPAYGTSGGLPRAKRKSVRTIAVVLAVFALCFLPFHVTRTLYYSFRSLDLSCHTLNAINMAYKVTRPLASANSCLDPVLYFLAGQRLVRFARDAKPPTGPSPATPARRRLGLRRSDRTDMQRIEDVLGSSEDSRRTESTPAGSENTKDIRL
Sequence of UniProt Q99720 (whole entry, looked up): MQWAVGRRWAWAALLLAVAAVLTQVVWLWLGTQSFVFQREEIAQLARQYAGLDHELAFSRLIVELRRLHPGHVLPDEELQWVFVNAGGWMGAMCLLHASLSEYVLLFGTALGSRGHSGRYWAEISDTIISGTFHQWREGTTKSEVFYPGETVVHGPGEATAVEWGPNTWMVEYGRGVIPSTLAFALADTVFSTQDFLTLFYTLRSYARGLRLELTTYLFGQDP
Sequence of UniProt Q8WU58 (whole entry, looked up): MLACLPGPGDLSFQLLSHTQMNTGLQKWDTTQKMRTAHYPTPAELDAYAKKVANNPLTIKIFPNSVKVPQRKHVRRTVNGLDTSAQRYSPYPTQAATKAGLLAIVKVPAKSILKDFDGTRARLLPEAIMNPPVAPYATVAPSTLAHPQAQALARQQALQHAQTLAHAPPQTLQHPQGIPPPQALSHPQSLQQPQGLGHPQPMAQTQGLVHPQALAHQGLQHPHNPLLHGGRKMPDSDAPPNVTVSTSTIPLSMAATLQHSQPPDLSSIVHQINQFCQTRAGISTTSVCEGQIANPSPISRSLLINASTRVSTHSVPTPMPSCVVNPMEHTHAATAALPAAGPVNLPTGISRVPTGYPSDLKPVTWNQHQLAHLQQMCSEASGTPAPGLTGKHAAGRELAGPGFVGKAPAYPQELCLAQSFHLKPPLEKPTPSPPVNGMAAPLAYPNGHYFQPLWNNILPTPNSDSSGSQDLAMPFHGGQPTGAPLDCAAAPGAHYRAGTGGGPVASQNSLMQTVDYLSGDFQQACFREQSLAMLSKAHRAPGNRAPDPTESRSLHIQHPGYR
Sequence of UniProt O15146 (whole entry, looked up): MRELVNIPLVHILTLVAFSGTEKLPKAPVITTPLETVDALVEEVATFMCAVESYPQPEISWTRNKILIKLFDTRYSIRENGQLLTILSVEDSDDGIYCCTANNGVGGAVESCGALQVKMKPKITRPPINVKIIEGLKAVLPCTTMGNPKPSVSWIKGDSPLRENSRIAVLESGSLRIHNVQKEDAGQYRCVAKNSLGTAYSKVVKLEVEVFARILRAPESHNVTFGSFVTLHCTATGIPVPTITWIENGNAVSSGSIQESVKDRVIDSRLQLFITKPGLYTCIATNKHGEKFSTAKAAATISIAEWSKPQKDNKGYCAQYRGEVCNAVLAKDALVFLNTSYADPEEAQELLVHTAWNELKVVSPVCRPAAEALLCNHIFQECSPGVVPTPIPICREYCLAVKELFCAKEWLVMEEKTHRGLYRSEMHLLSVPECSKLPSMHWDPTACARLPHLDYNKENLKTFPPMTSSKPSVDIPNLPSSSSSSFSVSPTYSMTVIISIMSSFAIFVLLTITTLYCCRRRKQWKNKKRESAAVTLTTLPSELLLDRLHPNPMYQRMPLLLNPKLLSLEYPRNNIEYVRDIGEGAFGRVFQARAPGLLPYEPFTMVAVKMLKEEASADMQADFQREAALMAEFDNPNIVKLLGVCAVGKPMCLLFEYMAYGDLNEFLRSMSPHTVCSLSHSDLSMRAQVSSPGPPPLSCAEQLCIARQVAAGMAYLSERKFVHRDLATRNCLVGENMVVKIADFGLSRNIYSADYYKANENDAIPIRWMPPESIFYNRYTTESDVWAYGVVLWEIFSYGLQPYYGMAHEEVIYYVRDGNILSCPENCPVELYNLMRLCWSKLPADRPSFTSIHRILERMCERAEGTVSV
Sequence of UniProt Q6PIU2 (whole entry, looked up): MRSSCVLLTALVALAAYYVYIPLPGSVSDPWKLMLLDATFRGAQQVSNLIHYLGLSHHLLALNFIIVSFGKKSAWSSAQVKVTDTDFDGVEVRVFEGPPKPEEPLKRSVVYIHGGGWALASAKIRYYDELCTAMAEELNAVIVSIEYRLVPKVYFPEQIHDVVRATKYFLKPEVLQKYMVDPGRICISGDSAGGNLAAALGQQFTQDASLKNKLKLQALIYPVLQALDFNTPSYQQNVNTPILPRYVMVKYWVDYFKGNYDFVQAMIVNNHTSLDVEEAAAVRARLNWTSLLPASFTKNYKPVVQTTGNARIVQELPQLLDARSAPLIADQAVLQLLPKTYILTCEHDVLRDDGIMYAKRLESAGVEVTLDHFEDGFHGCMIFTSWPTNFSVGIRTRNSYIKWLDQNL
Sequence of UniProt P41145 (whole entry, looked up): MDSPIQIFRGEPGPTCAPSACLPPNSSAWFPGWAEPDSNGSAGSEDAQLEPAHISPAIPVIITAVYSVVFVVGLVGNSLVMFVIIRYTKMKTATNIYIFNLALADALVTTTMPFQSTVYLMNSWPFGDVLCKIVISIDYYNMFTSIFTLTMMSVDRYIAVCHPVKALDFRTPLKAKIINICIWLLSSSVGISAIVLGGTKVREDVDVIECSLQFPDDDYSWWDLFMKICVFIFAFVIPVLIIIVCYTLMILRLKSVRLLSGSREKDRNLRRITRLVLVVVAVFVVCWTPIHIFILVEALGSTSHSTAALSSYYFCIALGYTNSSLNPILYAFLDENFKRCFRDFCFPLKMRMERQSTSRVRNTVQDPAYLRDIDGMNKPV

Structure (SMILES)	target	assay	system	setting	how to read	measurement	result
O=C(Nc1cccnn1)N1CCC(=Cc2cccc(Oc3ccc(C(F)(F)F)cn3)c2)CC1	SIGMAR1 (Homo sapiens, UniProt Q99720)	radioligand binding, inhibitor	–	10 µM, human, together with: [3H]haloperidol	–	inhibition	24%
CN1CCN(c2cc(-c3ccncc3)c(-c3ccc4ccccc4c3)nn2)CC1	P2Y purinoceptor 2 (P2RY2, Homo sapiens, UniProt P41231)	antagonist, FLIPR	–	10 µM	–	inhibition	3.1%
COc1cc(Nc2ncc(F)c(Nc3ccc4c(n3)NC(=O)C(C)(C)O4)n2)cc(OC)c1OC	MAP2K7 (Homo sapiens, UniProt O14733)	binding, KINOMEscan	–	10 µM, MKK7 kinase	–	inhibition	8%
C[C@H]1CN(c2n[nH]c3nc(N[C@H]4CC[C@H](NS(=O)(=O)CCC(F)(F)F)CC4)ncc23)CCO1	Protein FAM222B (Homo sapiens, UniProt Q8WU58)	competitor, Kinobeads competition	HEK293, K562, placenta extract	0.8 µM	reference: vehicle	remaining binding	45%
O=C(Nc1cnccc1Cl)N1CCN(Cc2ccc3c(c2)OC(F)(F)O3)CC1	OPRK1 (Homo sapiens, UniProt P41145)	radioligand binding, inhibitor	–	50 µM, human, together with: [3H]diprenorphine	–	inhibition	19%
COc1ccc(N2C(=O)N(c3c(C)cccc3Cl)Cc3cnc(Nc4ccc(C5CCN(C)CC5)cc4OC)nc32)nc1	MUSK (Homo sapiens, UniProt O15146)	kinase activity	–	0.5 µM	–	inhibition	5%
[2H]c1c([2H])c([C@]2([2H])CCCN2C(=O)C(C)(C)Oc2ccc3cn[nH]c3c2)c([2H])c([2H])c1C([2H])([2H])[2H]	PTK6 (Homo sapiens, UniProt Q13882)	KINOMEscan	–	1 µM	reference: DMSO control	remaining binding	71%
O=C(c1ccc(Cl)cc1)N1CCN2C(=O)N(OC(=O)N3CCOc4ccccc43)C(=O)C2C1 (centres unmarked)	NCEH1 (Homo sapiens, UniProt Q6PIU2)	MS-based ABPP	SW-620 conditioned medium	10 µM, 1 h, 37 °C, median protein ratio	reference: compound over DMSO	probe labelling ratio	1.34

For quick reference, copied from above:
Structure (SMILES)	target	assay	system	setting	how to read	measurement	result
O=C(Nc1cccnn1)N1CCC(=Cc2cccc(Oc3ccc(C(F)(F)F)cn3)c2)CC1	SIGMAR1 (Homo sapiens, UniProt Q99720)	radioligand binding, inhibitor	–	10 µM, human, together with: [3H]haloperidol	–	inhibition	24%
